Measured values pooled from the literature.
Compare with care: the assays were run in different laboratories.

`Cc1ccc(C(=O)N(CCCN)C(c2nc3snc(C)c3c(=O)n2Cc2ccccc2)C(C)C)cc1` (centres unmarked) — result for “patients with grade ≥3 adverse events”: 62% (patients; intravenous, dose not given, all doses).
Under “patients discontinuing for AE”, `C[C@@H](Nc1cc(F)cc(F)c1)c1cc(C(=O)N(C)C)cc2c(=O)cc(N3CCOCC3)oc12` is recorded as 0% (CTCAE v4, item: pulmonary embolism; patients with advanced solid tumours; oral, dose not given, phase I dose finding).
Under “patients with TEAEs”, `CC(C)C[C@H](NC(=O)[C@@H](Cc1c[nH]c2ccccc12)NC(=O)[C@H](Cc1ccc(O)cc1)NC(=O)[C@H](CO)NC(=O)[C@H](Cc1c[nH]c2ccccc12)NC(=O)[C@H](Cc1c[nH]cn1)NC(=O)[C@@H]1CCC(=O)N1)C(=O)N[C@@H](CCCNC(=N)N)C(=O)N1CCC[C@H]1C(=O)NCC(N)=O` is recorded as 89.4% (Chinese CPP children, overall; intramuscular, 22.5 mg, 12 months, day 1, month 6).
`C=CC[C@@H]1/C=C(\C)C[C@H](C)C[C@H](OC)[C@H]2O[C@@](O)(C(=O)C(=O)N3CCCC[C@H]3C(=O)O[C@H](/C(C)=C/[C@@H]3CC[C@@H](O)[C@H](OC)C3)[C@H](C)[C@@H](O)CC1=O)[C@H](C)C[C@@H]2OC`: “patients with supratherapeutic C0” 0% (kidney transplant recipients, CYP3A5*1/*1 or *1/*3 rapid metabolizers, whole blood; oral, dose not given).
Under “patients with adverse event”, `CNC(=O)c1ccc(-c2cnc3ncc(Cc4ccc5ncccc5c4)n3n2)cc1F` is recorded as 0% (item: Hypoalbuminemia, all grades; hepatocellular carcinoma patients; oral, 600 mg twice daily, expansion cohort, any causality).
`C=CCN1CC(=O)N2[C@@H](Cc3ccc(O)cc3F)C(=O)N(Cc3cccc(N4CC(N5CCN(CC)CC5)C4)n3)C[C@@H]2N1C(=O)NCc1ccccc1` — result for “patients with ALT increased”: 0% (advanced solid tumour patients; 15 mg twice daily, treatment-related, any grade).
`Cc1cc(NC2CCN(C(=O)OC3CCN(C(=O)/C=C/CN(C)C)C3)CC2)n2ncc(C(C)C)c2n1` (centres unmarked) — result for “patients with Nausea”: 2% (patients with advanced solid tumours; dose not given, QD arm, grade 3 or higher).
Under “patients with immune-mediated AE”, `Cc1cc(-c2nnc(N)nc2-c2ccc(F)cc2)cc(Cl)n1` is recorded as 0% (item: Colitis; IO-naive mCRPC patients, male; oral, dose not given, treatment-related, all grades).
For `CCOc1c([C@H](C)n2nc(C)c3c(N)ncnc32)cc(Cl)c(F)c1[C@@H]1CNC(=O)C1`, the patients was 100% (item: QTcF ≤450 ms; previously treated B-cell malignancy; oral, 10 mg once daily, baseline QTcF ≤450 ms).
Under “patients with adverse event”, `COc1cc(Nc2ncc3c(n2)-c2ccc(Cl)cc2C(c2c(F)cccc2OC)=NC3)ccc1C(=O)O` is recorded as 13% (item: oral mucositis, grade 2; cancer patients, phase 1/2; dose not given, together with: pembrolizumab).
Under “patients with gingival bleeding”, `O=C(Nc1nc2cccc(-c3ccc(CN4CCS(=O)(=O)CC4)cc3)n2n1)C1CC1` is recorded as 0% (rheumatoid arthritis patients; oral, 100 mg twice daily, 4 weeks, regardless of relatedness).
